Assay results of several laboratories.
Numbered parts are unrelated; each lists some results of a single study.
Chain of UniProt O60285 (whole entry, looked up): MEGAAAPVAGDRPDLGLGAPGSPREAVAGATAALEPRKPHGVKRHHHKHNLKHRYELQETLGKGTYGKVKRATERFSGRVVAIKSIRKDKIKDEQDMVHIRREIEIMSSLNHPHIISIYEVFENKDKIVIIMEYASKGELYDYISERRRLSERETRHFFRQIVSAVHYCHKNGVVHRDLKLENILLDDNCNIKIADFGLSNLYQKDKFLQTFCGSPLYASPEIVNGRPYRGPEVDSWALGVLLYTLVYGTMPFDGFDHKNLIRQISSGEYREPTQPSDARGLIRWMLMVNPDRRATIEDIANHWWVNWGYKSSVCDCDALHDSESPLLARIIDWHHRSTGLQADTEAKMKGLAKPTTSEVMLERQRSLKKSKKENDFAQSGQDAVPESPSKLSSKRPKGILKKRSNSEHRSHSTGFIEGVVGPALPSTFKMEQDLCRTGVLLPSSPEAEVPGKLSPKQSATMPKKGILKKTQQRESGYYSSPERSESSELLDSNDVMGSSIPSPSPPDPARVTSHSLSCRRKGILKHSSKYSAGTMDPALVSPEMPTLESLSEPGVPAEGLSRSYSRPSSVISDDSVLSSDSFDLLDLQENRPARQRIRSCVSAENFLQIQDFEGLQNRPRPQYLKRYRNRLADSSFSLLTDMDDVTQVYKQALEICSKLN

Study 1
Target: Sal-like protein 4, full length isoform A (SALL4, Homo sapiens, UniProt Q9UJQ4, residues 1-1053)
Chain of UniProt Q9UJQ4 (whole entry, looked up): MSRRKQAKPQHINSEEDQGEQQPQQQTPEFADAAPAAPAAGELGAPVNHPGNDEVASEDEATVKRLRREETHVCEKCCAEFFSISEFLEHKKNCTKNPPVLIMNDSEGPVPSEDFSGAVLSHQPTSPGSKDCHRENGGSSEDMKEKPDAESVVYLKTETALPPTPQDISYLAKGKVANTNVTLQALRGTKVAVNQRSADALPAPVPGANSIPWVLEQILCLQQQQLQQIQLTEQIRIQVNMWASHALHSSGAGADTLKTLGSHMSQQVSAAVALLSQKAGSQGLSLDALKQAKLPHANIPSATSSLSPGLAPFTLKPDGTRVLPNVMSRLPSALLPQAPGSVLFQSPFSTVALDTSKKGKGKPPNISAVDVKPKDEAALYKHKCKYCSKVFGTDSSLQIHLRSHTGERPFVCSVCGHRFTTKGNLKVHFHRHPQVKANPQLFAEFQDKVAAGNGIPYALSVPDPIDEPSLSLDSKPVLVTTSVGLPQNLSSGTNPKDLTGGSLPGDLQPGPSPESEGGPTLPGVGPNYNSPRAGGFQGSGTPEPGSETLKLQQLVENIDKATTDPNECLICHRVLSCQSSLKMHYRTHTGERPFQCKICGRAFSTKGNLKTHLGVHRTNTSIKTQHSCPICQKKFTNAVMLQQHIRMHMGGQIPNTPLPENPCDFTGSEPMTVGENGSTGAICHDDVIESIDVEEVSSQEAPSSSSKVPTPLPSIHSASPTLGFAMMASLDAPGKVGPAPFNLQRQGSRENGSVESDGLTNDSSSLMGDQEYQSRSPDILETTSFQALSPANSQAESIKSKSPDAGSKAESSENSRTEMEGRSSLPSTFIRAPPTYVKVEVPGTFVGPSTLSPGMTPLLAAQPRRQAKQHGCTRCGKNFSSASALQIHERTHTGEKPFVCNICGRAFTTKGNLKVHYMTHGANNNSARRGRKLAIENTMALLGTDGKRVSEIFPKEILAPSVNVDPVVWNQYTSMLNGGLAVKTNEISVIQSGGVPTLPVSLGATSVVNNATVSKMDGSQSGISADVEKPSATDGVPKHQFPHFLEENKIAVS
Technique: universal PBM
Form: double-stranded DNA, one strand shown
Medium: in vitro
Tested at: 600 nM
Setting: 8-mer, flanks averaged, mean of replicates
Direction: higher = stronger binding
Strand | E-score
CGCAGTGC | -0.236
GGGGGCGA | -0.291
CCTGGCCG | -0.281
CTCACCTC | -0.229
CAGGTTGG | -0.204
ACTTAATC | 0.186
CTTGCATA | 0.174
ACACCTGT | -0.0576

Study 2
Target: Prothrombin, mature alpha-thrombin (F2, Homo sapiens, UniProt P00734)
Technique: aptamer microarray, sandwich
Form: DNA with 2'F-ANA
Medium: in vitro
Tested at: 200 nM
Setting: whole 15-mer aptamer, many near background
With: Cy3 exosite-II aptamer, 400 nM
Direction: higher = stronger binding
Strand: GGTTGGTGTGGTTGG
Modification | mean fluorescence intensity [a.u.]
2'F-ANA at 6 8 11 | 479
2'F-ANA at 1 4 6 7 8 9 12 | 317
2'F-ANA at 1 3 7 10 12 13 | 113
2'F-ANA at 1 3 6 7 8 10 13 14 | 69.4
2'F-ANA at 1 2 4 5 10 11 12 14 | 44.9
2'F-ANA at 1 2 3 4 6 8 10 11 12 15 | 67.9
2'F-ANA at 2 5 6 7 8 9 12 13 15 | 103
2'F-ANA at 3 4 6 7 9 13 14 | 220

Study 3
Target: Interferon regulatory factor 5, full length, phosphomimetic (IRF5, Homo sapiens, UniProt Q13568-2, residues 1-514, S451D/S453D/S456D/S462D)
Technique: protein-binding microarray
Form: double-stranded DNA, one strand shown
Medium: in vitro
Tested at: 940 nM top
Setting: 60-bp whole probe
With: salmon DNA 0.4 mg/ml
Reference: random background probes
Direction: higher = stronger binding
All sequences stand within: GCCTAGCAC … GTCTTGATTCGCTTGACGCTGCTG
Strand | fitted relative affinity [z-score]
CACGAACTGAGTCTCGAGACGTGCTAG | 1.09
TTAGATTTGAGTATCGATTAGTGCTAG | 4.6
TCACATCTCCAGTAGCCTACTGTGCTA | 0.675
AACGGTTTCGGTCTCGGGACGTGCTAG | 13.7
GACGGACTGGACTCTGGGGACGTGCTA | -0.294
CTGCCCTGGTTCCCCTGCCTGTGCTAG | -0.12
GGCGGTTTCGGTTTCGGGACGTGCTAG | 14.6
TGAAGAATGCCTTTAATAAGGTGCTAG | -0.392

Further values, each from its own experiment
Compound | target | test | conditions | scale | quantity | value
Cc1nc(Nc2ncc(C(=O)Nc3c(C)cccc3Cl)s2)cc(N2CCN(CCO)CC2)n1 | NUAK family SNF1-like kinase 1 (NUAK1, Homo sapiens, UniProt O60285) | enzyme activity, inhibitor | 0.5 µM | reference: control | remaining activity | 110%

Some of these lines once more (study 1):
Strand | E-score
GGGGGCGA | -0.291
CCTGGCCG | -0.281
